Experimental data of several laboratories.
A part holds a random share of what one study measured.
Sequence of UniProt Q16832 (whole entry, looked up): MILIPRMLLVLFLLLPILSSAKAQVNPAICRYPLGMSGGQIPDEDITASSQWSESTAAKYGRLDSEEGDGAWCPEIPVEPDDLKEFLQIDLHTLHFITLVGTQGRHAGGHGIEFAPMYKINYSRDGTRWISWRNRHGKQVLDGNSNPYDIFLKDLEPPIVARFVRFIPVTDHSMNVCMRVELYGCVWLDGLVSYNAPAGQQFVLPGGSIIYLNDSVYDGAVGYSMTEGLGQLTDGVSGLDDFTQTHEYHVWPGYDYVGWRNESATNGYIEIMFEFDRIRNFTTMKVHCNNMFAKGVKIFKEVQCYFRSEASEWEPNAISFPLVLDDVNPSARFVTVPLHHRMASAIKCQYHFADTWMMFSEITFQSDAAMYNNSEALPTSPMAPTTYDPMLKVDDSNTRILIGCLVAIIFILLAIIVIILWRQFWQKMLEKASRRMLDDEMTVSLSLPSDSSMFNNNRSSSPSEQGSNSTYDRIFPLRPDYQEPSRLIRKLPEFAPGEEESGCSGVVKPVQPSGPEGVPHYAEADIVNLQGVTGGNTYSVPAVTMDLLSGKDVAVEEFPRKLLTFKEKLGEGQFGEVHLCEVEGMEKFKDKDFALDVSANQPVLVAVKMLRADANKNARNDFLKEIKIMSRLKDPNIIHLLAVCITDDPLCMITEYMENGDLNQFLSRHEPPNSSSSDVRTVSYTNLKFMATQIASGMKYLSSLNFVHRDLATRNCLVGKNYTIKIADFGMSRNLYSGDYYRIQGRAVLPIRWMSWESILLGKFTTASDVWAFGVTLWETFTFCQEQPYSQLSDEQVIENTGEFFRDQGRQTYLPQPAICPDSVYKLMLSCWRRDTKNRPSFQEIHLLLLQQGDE
Sequence of UniProt P49760 (whole entry, looked up): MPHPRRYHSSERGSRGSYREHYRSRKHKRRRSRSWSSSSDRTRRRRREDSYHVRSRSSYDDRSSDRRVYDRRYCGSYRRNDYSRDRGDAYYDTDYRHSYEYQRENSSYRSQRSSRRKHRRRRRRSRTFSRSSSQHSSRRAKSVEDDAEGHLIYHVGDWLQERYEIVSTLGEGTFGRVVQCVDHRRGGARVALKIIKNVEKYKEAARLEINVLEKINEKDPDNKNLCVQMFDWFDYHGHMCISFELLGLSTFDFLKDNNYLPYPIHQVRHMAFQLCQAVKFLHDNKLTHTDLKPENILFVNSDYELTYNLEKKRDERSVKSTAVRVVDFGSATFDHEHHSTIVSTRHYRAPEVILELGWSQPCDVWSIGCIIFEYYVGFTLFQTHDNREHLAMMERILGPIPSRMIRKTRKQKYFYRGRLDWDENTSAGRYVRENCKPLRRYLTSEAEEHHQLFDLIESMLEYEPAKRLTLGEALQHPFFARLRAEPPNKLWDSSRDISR
Sequence of UniProt O14965 (whole entry, looked up): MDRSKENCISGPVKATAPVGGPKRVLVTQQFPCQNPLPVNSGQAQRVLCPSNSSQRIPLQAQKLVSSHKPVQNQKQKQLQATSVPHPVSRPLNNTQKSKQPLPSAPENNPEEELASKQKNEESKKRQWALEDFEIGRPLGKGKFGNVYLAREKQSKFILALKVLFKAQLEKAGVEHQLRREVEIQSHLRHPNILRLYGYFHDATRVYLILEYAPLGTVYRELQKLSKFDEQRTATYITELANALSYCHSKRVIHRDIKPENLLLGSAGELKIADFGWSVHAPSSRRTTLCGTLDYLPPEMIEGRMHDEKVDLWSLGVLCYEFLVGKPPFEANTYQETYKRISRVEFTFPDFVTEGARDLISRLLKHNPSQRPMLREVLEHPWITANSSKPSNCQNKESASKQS
Sequence of UniProt O14976 (whole entry, looked up): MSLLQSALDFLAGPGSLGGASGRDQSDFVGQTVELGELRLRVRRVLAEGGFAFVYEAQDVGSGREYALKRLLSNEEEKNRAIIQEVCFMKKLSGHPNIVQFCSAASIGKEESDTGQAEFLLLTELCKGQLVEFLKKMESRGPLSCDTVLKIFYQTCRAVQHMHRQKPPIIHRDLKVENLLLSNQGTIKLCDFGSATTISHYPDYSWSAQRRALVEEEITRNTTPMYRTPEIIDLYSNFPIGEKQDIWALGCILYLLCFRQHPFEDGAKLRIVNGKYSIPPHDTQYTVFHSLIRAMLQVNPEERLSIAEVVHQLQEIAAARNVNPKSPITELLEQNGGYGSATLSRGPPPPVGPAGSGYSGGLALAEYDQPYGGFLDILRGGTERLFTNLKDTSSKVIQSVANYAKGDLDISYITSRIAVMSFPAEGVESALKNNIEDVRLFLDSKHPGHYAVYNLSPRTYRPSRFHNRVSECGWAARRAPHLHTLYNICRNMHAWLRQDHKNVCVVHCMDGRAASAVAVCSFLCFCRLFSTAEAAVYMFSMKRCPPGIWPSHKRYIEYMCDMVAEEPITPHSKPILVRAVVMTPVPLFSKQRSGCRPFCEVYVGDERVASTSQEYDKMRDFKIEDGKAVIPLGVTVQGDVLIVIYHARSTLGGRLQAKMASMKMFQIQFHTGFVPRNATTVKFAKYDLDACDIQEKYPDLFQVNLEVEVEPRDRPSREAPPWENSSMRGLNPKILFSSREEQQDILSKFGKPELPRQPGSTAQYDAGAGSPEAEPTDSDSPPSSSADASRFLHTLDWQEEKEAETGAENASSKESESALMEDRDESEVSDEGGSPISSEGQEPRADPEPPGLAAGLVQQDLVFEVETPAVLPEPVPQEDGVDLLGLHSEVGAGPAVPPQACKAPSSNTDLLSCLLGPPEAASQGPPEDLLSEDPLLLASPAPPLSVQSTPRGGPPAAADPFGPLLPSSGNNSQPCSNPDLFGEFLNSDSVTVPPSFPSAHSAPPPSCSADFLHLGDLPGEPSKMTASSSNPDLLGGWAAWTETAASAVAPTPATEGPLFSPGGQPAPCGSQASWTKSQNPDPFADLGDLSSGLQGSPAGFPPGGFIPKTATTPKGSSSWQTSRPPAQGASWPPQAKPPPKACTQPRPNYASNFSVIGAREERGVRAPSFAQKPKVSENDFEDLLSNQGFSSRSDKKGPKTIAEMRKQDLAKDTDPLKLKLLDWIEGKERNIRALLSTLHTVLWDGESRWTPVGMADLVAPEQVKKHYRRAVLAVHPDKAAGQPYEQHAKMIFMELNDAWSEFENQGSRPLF

Study 1 — host: human; matrix: microsomes or S9; concentration: 2 µM; time: 0.5 h; measurement: remaining compound
SMILES = COCCOC(=O)c1c(C)[nH]c(C(=O)N2CCOc3ccc(S(C)(=O)=O)cc32)c1C; value = > 99%
SMILES = CC1(C)CC(=O)C(C(Cc2ccccc2)C2=C(O)CC(C)(C)CC2=O)=C(O)C1; value = < 1%
SMILES = CC(=O)Nc1nc2ccc(-c3nn(Cc4cc5ccccc5nc4-c4ccccc4C)c4nc(N)ncc34)cc2s1; value = 22.2%
SMILES = CCc1cc2c3c([nH]c2cc1S(=O)(=O)Nc1ccc2c(c1)OCCO2)CC(C)(C)CC3=O; value = 10.9%
SMILES = Brc1cccc(Nc2ncnc3cc4c(cc23)OC(COCc2ccccc2)CO4)c1 (stereo not drawn); value = 0.77%
SMILES = CC1C(c2ccccc2)CCC(C(=O)O)C1C(=O)O (stereo not drawn); value = > 99%
SMILES = Cc1ccc(Cl)cc1NC(=O)Cn1ncc2ccccc2c1=O; value = 57.7%
SMILES = COCCn1c(C)cc(C)c(C(=O)NCCNc2ncccn2)c1=O; value = 92%
SMILES = COC(=O)CC(c1cc(Cl)c2c(c1)OCO2)c1c(O)cc(C)[nH]c1=O (stereo not drawn); value = 0.0338%
SMILES = CCN(CC)CCCOC(=O)C1(c2ccc(F)cc2)CCCC1; value = 81.1%
SMILES = Cc1c(C(=O)NC2CCN(Cc3ccc(OCCCN(C)C)cc3)CC2)cnn1-c1ccccc1; value = > 100%
SMILES = O=C(CS(=O)(=O)c1ccccc1)NC(c1ccccc1)c1ccccc1; value = > 100%
SMILES = CS(=O)(=O)N1N=C(c2cccs2)CC1c1ccc2nccnc2c1 (stereo not drawn); value = 34.7%
SMILES = CC(C)(C)OC(=O)NCCC(=O)Nc1nc2cc(F)ccc2s1; value = > 99%
SMILES = COc1ccc(N)cc1N1CCCCS1(=O)=O; value = 101%
SMILES = COc1ccc(OC)c(NC(=O)c2cc3cccc4c3n2CC(C)S4)c1 (stereo not drawn); value = 33.4%
SMILES = O=C1C2CN(Cc3cncs3)CCN2C(=O)N1c1ccccc1 (stereo not drawn); value = 92.9%

Study 2 — read-out: enzyme activity; mode: inhibitor; concentration: 10 µM; measurement: inhibition
Target: Calcium/calmodulin-dependent protein kinase type II subunit alpha (CAMK2A, Homo sapiens, UniProt Q9UQM7)
Sequence of UniProt Q9UQM7 (whole entry, looked up): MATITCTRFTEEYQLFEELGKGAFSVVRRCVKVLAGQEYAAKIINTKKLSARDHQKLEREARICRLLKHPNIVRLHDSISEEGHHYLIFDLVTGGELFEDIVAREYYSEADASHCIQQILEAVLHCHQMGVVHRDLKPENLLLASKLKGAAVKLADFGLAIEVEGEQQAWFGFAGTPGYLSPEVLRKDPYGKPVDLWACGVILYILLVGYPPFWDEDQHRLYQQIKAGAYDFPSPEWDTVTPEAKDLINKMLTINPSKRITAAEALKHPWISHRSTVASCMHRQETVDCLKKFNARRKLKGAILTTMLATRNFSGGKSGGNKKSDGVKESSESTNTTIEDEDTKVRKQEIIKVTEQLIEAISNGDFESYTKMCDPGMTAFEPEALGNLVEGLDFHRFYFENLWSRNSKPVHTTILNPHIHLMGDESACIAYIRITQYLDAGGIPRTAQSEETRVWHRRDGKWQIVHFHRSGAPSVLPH
SMILES = CC(=O)c1c(O)cc(O)cc1O; value = 8%
SMILES = C[C@@H]1C[C@H]2[C@@H]3C[C@H](F)C4=CC(=O)C=C[C@]4(C)[C@@]3(F)[C@@H](O)C[C@]2(C)[C@@]1(OC(=O)c1ccco1)C(=O)SCF; value = 2%
SMILES = O=C(/C=C/c1ccc(O[C@@H]2O[C@H](CO)[C@@H](O)[C@H](O)[C@H]2O[C@@H]2OC[C@](O)(CO)[C@H]2O)cc1)c1ccc(O)cc1O; value = 10%
SMILES = OC[C@H]1O[C@@](CO)(OC[C@@]2(OC[C@@]3(OC[C@@]4(OC[C@@]5(OC[C@@]6(OC[C@@]7(OC[C@@]8(O[C@H]9O[C@H](CO)[C@@H](O)[C@H](O)[C@H]9O)O[C@H](CO)[C@@H](O)[C@@H]8O)O[C@H](CO)[C@@H](O)[C@@H]7O)O[C@H](CO)[C@@H](O)[C@@H]6O)O[C@H](CO)[C@@H](O)[C@@H]5O)O[C@H](CO)[C@@H](O)[C@@H]4O)O[C@H](CO)[C@@H](O)[C@@H]3O)O[C@H](CO)[C@@H](O)[C@@H]2O)[C@@H](O)[C@@H]1O; value = 8%

Study 3 — read-out: enzyme activity; mode: inhibitor; concentration: 0.5 µM; relative to: control; measurement: remaining activity
Target: Receptor tyrosine-protein kinase erbB-4 (ERBB4, Homo sapiens, UniProt Q15303)
Sequence of UniProt Q15303 (whole entry, looked up): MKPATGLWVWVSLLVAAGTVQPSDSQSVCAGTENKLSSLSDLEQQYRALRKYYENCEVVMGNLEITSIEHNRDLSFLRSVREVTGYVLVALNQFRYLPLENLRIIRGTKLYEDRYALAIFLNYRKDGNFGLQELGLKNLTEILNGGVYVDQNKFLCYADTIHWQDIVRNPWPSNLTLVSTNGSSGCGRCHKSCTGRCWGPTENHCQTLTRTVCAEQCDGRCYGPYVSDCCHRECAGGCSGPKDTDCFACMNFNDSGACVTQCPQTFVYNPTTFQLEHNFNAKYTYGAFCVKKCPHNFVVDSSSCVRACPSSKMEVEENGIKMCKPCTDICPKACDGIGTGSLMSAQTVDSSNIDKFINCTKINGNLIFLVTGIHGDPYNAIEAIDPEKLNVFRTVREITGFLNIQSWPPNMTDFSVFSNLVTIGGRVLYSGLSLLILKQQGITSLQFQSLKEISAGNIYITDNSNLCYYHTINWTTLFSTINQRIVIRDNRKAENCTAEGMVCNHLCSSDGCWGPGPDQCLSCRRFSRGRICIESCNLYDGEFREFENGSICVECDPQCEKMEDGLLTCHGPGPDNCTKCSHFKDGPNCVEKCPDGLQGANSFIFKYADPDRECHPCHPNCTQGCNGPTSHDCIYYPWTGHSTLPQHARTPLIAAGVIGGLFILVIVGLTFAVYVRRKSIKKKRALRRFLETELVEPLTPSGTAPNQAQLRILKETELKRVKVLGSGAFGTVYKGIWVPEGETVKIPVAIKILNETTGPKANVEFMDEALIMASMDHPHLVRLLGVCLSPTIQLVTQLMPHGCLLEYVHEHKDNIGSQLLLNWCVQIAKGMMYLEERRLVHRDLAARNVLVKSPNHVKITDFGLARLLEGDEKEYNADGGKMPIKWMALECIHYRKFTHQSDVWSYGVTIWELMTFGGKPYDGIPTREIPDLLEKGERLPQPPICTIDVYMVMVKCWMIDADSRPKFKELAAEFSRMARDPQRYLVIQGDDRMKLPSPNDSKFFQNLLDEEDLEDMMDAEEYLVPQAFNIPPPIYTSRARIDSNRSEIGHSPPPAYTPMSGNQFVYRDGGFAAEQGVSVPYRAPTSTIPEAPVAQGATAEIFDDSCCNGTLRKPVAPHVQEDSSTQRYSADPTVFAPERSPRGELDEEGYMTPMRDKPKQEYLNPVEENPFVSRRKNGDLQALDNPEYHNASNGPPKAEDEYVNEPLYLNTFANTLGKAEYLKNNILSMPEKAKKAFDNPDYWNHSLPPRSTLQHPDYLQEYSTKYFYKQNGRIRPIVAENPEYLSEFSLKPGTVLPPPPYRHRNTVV
Structure (SMILES) = c1ccc(-c2n[nH]c3c2oc2ccccc23)cc1; value = 89.7%
Structure (SMILES) = Cc1ccc(S(=O)(=O)/C=C/C#N)cc1; value = 99.7%
Structure (SMILES) = CCCCc1c(-c2ccc(OC)cc2)[nH]c2nccnc12; value = 109%
Structure (SMILES) = COc1cccc(-c2cc(=O)c3ccccc3o2)c1N; value = 94.7%
Structure (SMILES) = COc1ccc2c(c1)c(C1=C(c3c[nH]c4ccccc34)C(=O)NC1=O)cn2CCCN(C)C; value = 93.4%
Structure (SMILES) = COc1ccc(COc2ccc(Cc3cnc(N)nc3N)cc2OC)cc1; value = 110%
Structure (SMILES) = O=c1cc(N2CCOCC2)oc2c(-c3ccccc3)cccc12; value = 102%
Structure (SMILES) = CN(C)S(=O)(=O)c1ccc2c(c1)/C(=C/c1cc3c([nH]1)CCCC3)C(=O)N2; value = 106%
Structure (SMILES) = O=C1Nc2ccc(Br)cc2/C1=C/c1cc2c([nH]1)CCCC2; value = 84.6%
Structure (SMILES) = O=C(c1cc2cc(O)ccc2[nH]1)c1cc2cc(O)ccc2[nH]1; value = 102%
Structure (SMILES) = O=Nc1c(-c2c(O)[nH]c3cc(Br)ccc23)[nH]c2ccccc12; value = 96.8%
Structure (SMILES) = O=C1NC(=O)c2c1c1c3ccccc3[nH]c1c1[nH]c3cc(Br)ccc3c21; value = 101%
Structure (SMILES) = Cc1cc(Nc2cc(N3CCN(C)CC3)nc(Sc3ccc(NC(=O)C4CC4)cc3)n2)[nH]n1; value = 93.1%
Structure (SMILES) = O=C1Cc2c([nH]c3ccc(Br)cc23)-c2ccccc2N1; value = 101%
Structure (SMILES) = N#Cc1cnc2cnc(NCc3cccnc3)cc2c1Nc1ccc(F)c(Cl)c1; value = 72.6%
Structure (SMILES) = Oc1cccc(-c2nc(N3CCOCC3)c3oc4ncccc4c3n2)c1; value = 97.6%
Structure (SMILES) = O=C1Nc2ccccc2/C1=C\c1c(Cl)[nH]c2ccccc12; value = 103%
Structure (SMILES) = O=C1NC(=O)c2c1c1c3ccccc3[nH]c1n1cncc21; value = 102%
Structure (SMILES) = c1ccc2c(-c3ccncc3)c[nH]c2c1; value = 83.7%

Study 4 — technique: competition with immobilised ligand; concentration: 1 µM; measurement: remaining binding
SMILES: NS(=O)(=O)c1cc(NC(=O)Cc2ccccc2)ccc1Oc1cccc(Cl)c1
target = Cyclin-G-associated kinase (GAK, Homo sapiens, UniProt O14976); read-out = cell-free assay; value = 99%
target = Dual specificity protein kinase CLK2 (CLK2, Homo sapiens, UniProt P49760); read-out = cell-free assay; value = 91%
target = Epidermal growth factor receptor (EGFR, Homo sapiens, UniProt P00533, del747-752/P753S); read-out = cell-free assay; value = 67%
target = Receptor-interacting serine/threonine-protein kinase 4 (RIPK4, Homo sapiens, UniProt P57078); read-out = cell-free assay; value = 83%
target = Leukocyte tyrosine kinase receptor (LTK, Homo sapiens, UniProt P29376); read-out = cell-free assay; value = 87%
target = Tyrosine-protein kinase Blk (BLK, Homo sapiens, UniProt P51451); read-out = cell-free assay; value = 68%
target = Cyclin-dependent kinase 11A (CDK11A, Homo sapiens, UniProt Q9UQ88); read-out = binding; value = 95%
target = Aurora kinase A (AURKA, Homo sapiens, UniProt O14965); read-out = cell-free assay; value = 69%
target = Serine/threonine-protein kinase WNK4 (WNK4, Homo sapiens, UniProt Q96J92); read-out = cell-free assay; value = 0%
target = Vascular endothelial growth factor receptor 2 (KDR, Homo sapiens, UniProt P35968); read-out = cell-free assay; value = 77%
target = Serine/threonine-protein kinase Nek6 (NEK6, Homo sapiens, UniProt Q9HC98); read-out = cell-free assay; value = 98%
target = Mast/stem cell growth factor receptor Kit (KIT, Homo sapiens, UniProt P10721, D816H); read-out = cell-free assay; value = 76%
target = Tyrosine-protein kinase ABL1, phosphorylated (ABL1, Homo sapiens, UniProt P00519); read-out = cell-free assay; value = 75%
target = Dual specificity mitogen-activated protein kinase kinase 6 (MAP2K6, Homo sapiens, UniProt P52564); read-out = cell-free assay; value = 99%
target = Inhibitor of nuclear factor kappa-B kinase subunit epsilon (IKBKE, Homo sapiens, UniProt Q14164); read-out = cell-free assay; value = 69%
target = Ribosomal protein S6 kinase alpha-3, C-terminal kinase domain (RPS6KA3, Homo sapiens, UniProt P51812); read-out = cell-free assay; value = 98%
target = Receptor tyrosine-protein kinase erbB-4 (ERBB4, Homo sapiens, UniProt Q15303); read-out = cell-free assay; value = 56%
target = Proto-oncogene tyrosine-protein kinase receptor Ret (RET, Homo sapiens, UniProt P07949, M918T); read-out = cell-free assay; value = 83%
target = Calcium/calmodulin-dependent protein kinase type II subunit beta (CAMK2B, Homo sapiens, UniProt Q13554); read-out = cell-free assay; value = 100%
target = STE20/SPS1-related proline-alanine-rich protein kinase (STK39, Homo sapiens, UniProt Q9UEW8); read-out = cell-free assay; value = 86%
target = Ephrin type-A receptor 1 (EPHA1, Homo sapiens, UniProt P21709); read-out = cell-free assay; value = 100%
target = Serine/threonine-protein kinase Sgk2 (SGK2, Homo sapiens, UniProt Q9HBY8); read-out = cell-free assay; value = 85%
target = Discoidin domain-containing receptor 2 (DDR2, Homo sapiens, UniProt Q16832); read-out = cell-free assay; value = 87%

For quick reference, copied from above (study 3):
Structure (SMILES) = COc1ccc(COc2ccc(Cc3cnc(N)nc3N)cc2OC)cc1; value = 110%
Structure (SMILES) = O=c1cc(N2CCOCC2)oc2c(-c3ccccc3)cccc12; value = 102%
Structure (SMILES) = CN(C)S(=O)(=O)c1ccc2c(c1)/C(=C/c1cc3c([nH]1)CCCC3)C(=O)N2; value = 106%
Structure (SMILES) = O=C1Nc2ccc(Br)cc2/C1=C/c1cc2c([nH]1)CCCC2; value = 84.6%
Structure (SMILES) = O=C(c1cc2cc(O)ccc2[nH]1)c1cc2cc(O)ccc2[nH]1; value = 102%
Structure (SMILES) = O=Nc1c(-c2c(O)[nH]c3cc(Br)ccc23)[nH]c2ccccc12; value = 96.8%
Structure (SMILES) = O=C1NC(=O)c2c1c1c3ccccc3[nH]c1c1[nH]c3cc(Br)ccc3c21; value = 101%
Structure (SMILES) = Cc1cc(Nc2cc(N3CCN(C)CC3)nc(Sc3ccc(NC(=O)C4CC4)cc3)n2)[nH]n1; value = 93.1%
Structure (SMILES) = O=C1Cc2c([nH]c3ccc(Br)cc23)-c2ccccc2N1; value = 101%
Structure (SMILES) = N#Cc1cnc2cnc(NCc3cccnc3)cc2c1Nc1ccc(F)c(Cl)c1; value = 72.6%
